Measured values collected from several papers.
Every numbered part comes from another study and shows a few of its results, in no order. Positions count from the first letter of the parent shown.

Sample 1 — technique: RNA Bind-n-Seq; molecule type: RNA; matrix: in vitro; tested at: 365 nM; baseline: no-protein control; direction: higher = stronger binding
Target: RNA binding protein fox-1 homolog 2, RRM domain, GST-SBP tag (RBFOX2, Homo sapiens, UniProt O43251-10, residues 100-194)
Setting: natural RNA segment, single round, ends assumed
Shared flanks, not repeated: GGGAGUUCUACAGUCCGACGAUC … UGGAAUUCUCGGGUGCCAA
Residues (chain): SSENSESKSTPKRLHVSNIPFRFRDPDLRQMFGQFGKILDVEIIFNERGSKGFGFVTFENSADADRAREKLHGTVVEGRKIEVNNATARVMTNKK
Oligonucleotide	RBNS enrichment (R)
CUUUGACAUCUUUUAAAGAGUCUGGAUAAAUCUGACUCGUUGCUCAAUAGGGUUUAUUUGGCAGUGGGAUUCACAUCUUCCUGCACUCCUGCCAGCAGUACAGGGCACAG	0.448
AUUGCUCUUCUUCUUUUAGACUGGUUGUCAUAGUUUCUGCAAAGGGCAAGUUCAUUGUGCUACCCUCCCAAUUCCCCCAUUAUGGAGUAACCAGUAUUAUUCAGUGAGCU	0.412
GAACUGUUGGAUGACACCUUUGACAUAUCAGCCAAUAUCAAUCAAGCUGAAGACUCCAGACACUGUCUGUGUGACUGUAACAUUUCUUCAAGGAAAGUAUAGCGUCUAUG	0.21
UCAAUGUCACUUCCUUCUCUAGGAUCUCUCAGAUUCUAUCUCCCCAAGACAGGCAGGGAAAUUCUAAUUUCUCUCUUAAGAAAGUAAAUUUCCACUUCACCAGCAAUAAC	0.299
GUAAAUUAUUGUAAACUUUUUCAAUGGUUGGGACAAUGGCAAUAGGAUAAAACGGGUUACUAAGAUGAAAUUGCCAAAAAAAAAAAAAAAUUUGUAACUAAUUUUGUACG	0.794
GCUAGGUUGCUAGAGACUGCGGUUAGUGCAGAACAGAGGUAAGCCUAAGUCCCAUCCUCAUGAACUUCAAUGCCCAGCCUUUGUGUUUAUUUUAUCUAAAUGUCUCCUUU	0.297
CAGCAAUAUAGGACUGUUGAACAAUCCCGGUGUGUCAGGACCCCCAAAUGUCACUUCUGCAUAAAGCAUGUAUGUCAUCUAUUUUUUCUUCAAUAAAGAGAUUUAAUAGC	5.66
UGUCACUUAGGGGCGGUCCCCACACUGAGUGAGAAAGGGGCAUCUGCCCUGUUGCUACUGUGAGGACCCUCCCUGGGGUUAGAAAGAAAGCAUCCAGGGUCACUCAUCUC	0.269

Sample 2 — technique: universal PBM; molecule type: double-stranded DNA, one strand shown; matrix: in vitro; tested at: not given; direction: higher = stronger binding
Target: Sal-like protein 4, full length isoform B (SALL4, Homo sapiens, UniProt Q9UJQ4-2, residues 1-616)
Setting: 8-mer, flanks averaged, mean of replicates
Target sequence (chain): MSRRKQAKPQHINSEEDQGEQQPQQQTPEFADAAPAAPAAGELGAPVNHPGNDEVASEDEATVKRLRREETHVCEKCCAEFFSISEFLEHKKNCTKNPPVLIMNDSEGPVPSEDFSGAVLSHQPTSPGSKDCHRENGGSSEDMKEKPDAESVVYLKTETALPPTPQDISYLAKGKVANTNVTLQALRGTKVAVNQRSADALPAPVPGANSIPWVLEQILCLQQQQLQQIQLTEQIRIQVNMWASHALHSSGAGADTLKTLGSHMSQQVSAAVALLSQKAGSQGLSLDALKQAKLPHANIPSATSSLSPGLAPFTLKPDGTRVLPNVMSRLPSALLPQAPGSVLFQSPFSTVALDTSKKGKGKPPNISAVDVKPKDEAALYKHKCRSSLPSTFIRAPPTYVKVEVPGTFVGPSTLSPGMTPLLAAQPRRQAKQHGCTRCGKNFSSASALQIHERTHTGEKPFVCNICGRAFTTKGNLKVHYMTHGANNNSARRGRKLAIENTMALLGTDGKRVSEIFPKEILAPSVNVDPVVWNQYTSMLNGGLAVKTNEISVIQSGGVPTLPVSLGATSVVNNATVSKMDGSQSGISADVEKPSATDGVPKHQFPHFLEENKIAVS
Oligonucleotide	E-score
ACTCATGG	0.0611
TACGTGCA	-0.0366
CATTTTAG	0.188
CGTTGAGC	-0.162
CGATAAAC	-0.0195
AAGCGCGT	-0.17
CGGCGCCA	-0.319
TCGTTACA	0.0518
GCGACGAC	-0.339
AGAGAAAG	0.0924
CGCTCTGC	-0.176
CATCAACA	0.116
ACTGAACA	0.103
ATTCATCG	0.0438
TCTCGGCA	-0.288
CGCGATCA	-0.134
AGGCGTTC	-0.176
AAAGCAAG	0.0467
TGCGAGCA	-0.0653
CTCCATAA	0.247
GCATCTAA	0.118
CGAGTCCA	-0.203
ATAGTTTA	0.287
CGTACTAA	0.159
ACACGGGC	-0.293

Sample 3 — technique: protein-binding microarray; molecule type: double-stranded DNA, one strand shown; matrix: in vitro; tested at: 2540 nM top; setting: 60-bp whole probe; with: salmon DNA 0.4 mg/ml; baseline: random background probes; direction: higher = stronger binding; shared flanks, not repeated: GCCTAGCAC … GTCTTGATTCGCTTGACGCTGCTG
Target: Interferon regulatory factor 3, full length, phosphomimetic (IRF3, Homo sapiens, UniProt Q14653, residues 1-427, S386D/S396D/S398D/S402D/T404D/S405D)
Residues (chain): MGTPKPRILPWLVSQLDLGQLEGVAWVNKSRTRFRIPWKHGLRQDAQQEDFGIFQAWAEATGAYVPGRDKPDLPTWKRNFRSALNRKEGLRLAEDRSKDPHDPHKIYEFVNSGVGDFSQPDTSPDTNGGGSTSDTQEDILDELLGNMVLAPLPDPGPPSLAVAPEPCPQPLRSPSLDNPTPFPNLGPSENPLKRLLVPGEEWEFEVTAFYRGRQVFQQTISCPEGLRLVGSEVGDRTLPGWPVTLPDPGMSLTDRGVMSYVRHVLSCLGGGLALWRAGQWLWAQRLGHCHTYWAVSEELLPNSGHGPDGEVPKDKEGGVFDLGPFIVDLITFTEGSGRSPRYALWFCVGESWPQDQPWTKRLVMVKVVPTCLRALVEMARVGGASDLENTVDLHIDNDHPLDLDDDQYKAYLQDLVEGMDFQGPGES
Oligonucleotide	fitted relative affinity [z-score]
TTCTTTTCCATTTTGTGTTTGTGCTAG	4.16
GACGGTTTCGGTTTCGGGACGTGCTAG	11
GACGGCATCGGGTTTCGGGACGTGCTA	0.335
TGGCCTCTAGGTTTTCTGAAGTGCTAG	-0.839
GACGGTTTCGGACTGGGGTCGTGCTAG	4.41
GACGGACTGGGTCTTGGGACGTGCTAG	-0.922
TTGGGTCTCCTTATCCTTTAGTGCTAG	1.68
GACGGAATGGACTATCGGGACGTGCTA	-0.209
TTTGCTTTCTTTATGTACTCGTGCTAG	2.68
GACGGTCTCCTTATCCTGAAGTGCTAG	2.88
TTAGATATCAGTATCGATGAGTGCTAG	1.23
TCATGTTTGTGTGTGTAACTGTGCTAG	-0.162
TTAAATTTTAATAACACAGAGTGCTAG	-0.129
GACGGTTGCGGTATCGGGACGTGCTAG	3.68
GACAGACTGGGTCTCGGGACGTGCTAG	-0.794
CTTGTGCTCCTTTTAATTTTGTGCTAG	2.78
TTAGGCCTGCTTATCCTTTAGTGCTAG	-0.396
GACGGTTTCCTTTTCCTCACGTGCTAG	10.7
ATAGATTTCAGACTGGATTAGTGCTAG	0.629

Sample 4 — target: CCND2, cyclin fold, Cln2 fusion (human); technique: yeast growth competition, sequencing; matrix: yeast; setting: weak parent motif; baseline: not given; direction: higher = stronger binding
Starting sequence: RBL1 docking peptide (human); GSAKRRLFGEDPP
Change	normalised enrichment score
GSAKRRCFGEDPP [L7C]	0.53
GSAKRRLFGEDPV [P13V]	0.879
GSAKRWLFGEDPP [R6W]	-0.0569
GSAKRHLFGEDPP [R6H]	0.61
GSAKRRLFFEDPP [G9F]	0.705
GSTKRRLFGEDPP [A3T]	0.364
GSAKRRLFGEDPG [P13G]	-0.21
GSAKRRLFGEDQP [P12Q]	-0.188
GSAKRRLFVEDPP [G9V]	0.712
GSAKRRLFGEMPP [D11M]	0.16
GSAKHRLFGEDPP [R5H]	0.507
GPAKRRLFGEDPP [S2P]	0.407
GSATRRLFGEDPP [K4T]	0.428
VSAKRRLFGEDPP [G1V]	0.422
GSAKRRYFGEDPP [L7Y]	0.0315
ISAKRRLFGEDPP [G1I]	0.736
GSAKRRNFGEDPP [L7N]	0.762
GSAKVRLFGEDPP [R5V]	-0.0673
GSAKRRLFGVDPP [E10V]	0.0261
GSAKRRLFGADPP [E10A]	0.0959
GSAFRRLFGEDPP [K4F]	0.00825
GDAKRRLFGEDPP [S2D]	-0.2

Sample 5 — technique: protein binding microarray; molecule type: double-stranded DNA, one strand shown; matrix: in vitro; tested at: not given; baseline: not given; direction: higher = stronger binding
Target: Histone acetyltransferase KAT6A, winged helix 1, GST fusion (KAT6A, Homo sapiens, UniProt Q92794, residues 1-85)
Setting: 8-mer, flanks averaged, mean of 2 arrays, mostly near background
Target sequence (chain): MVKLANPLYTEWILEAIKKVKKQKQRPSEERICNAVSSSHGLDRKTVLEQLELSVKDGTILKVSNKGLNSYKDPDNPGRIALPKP
Oligonucleotide	E-score
AAGCGGGG	0.0882
TCAAAAAA	-0.0575
AACGAACT	-0.144
CCAGGTAG	-0.0951
GAGAGTGC	0.00873
AGTTTAAT	-0.0758
CATGCGTC	0.142
AATACCGT	0.242
CTATGCAC	-0.079
ACAGCCGC	0.282
AACCGTTC	0.0965
CCTGGTGC	-0.0204
ATGTCGGA	0.111
CACTGCGC	0.379
AATGGGGT	-0.0519
CGGCATCC	0.271

Some of these lines once more (sample 4):
Change	normalised enrichment score
GSAKRRLFGADPP [E10A]	0.0959
GSAKVRLFGEDPP [R5V]	-0.0673
GSAKRRLFGEDPG [P13G]	-0.21
GSATRRLFGEDPP [K4T]	0.428
GPAKRRLFGEDPP [S2P]	0.407
GSAKRRLFFEDPP [G9F]	0.705
GSAKRRLFGEDPV [P13V]	0.879
GSAKRRLFVEDPP [G9V]	0.712
GSAKRRCFGEDPP [L7C]	0.53
